Published values gathered from unrelated publications.
Lines come from different studies, so protocols differ. Several values in a cell are separate wells, animals, samples, runs or records. ± marks the error that the study gave.

| SMILES | assay | test system | setting | how to read | endpoint | result |
| --- | --- | --- | --- | --- | --- | --- |
| COC1OC(C)C(OC2OC(C)C(O)C(OC3OC(C)C(OC4OC(C)C(O)C(OC5OC(C)C(OC6OC(C)C(O)C(OC7OC(C)C(OC8OC(C)C(O)C(OC9OC(C)C(OC%10OC(C)C(O)C(OC%11OC(C)C(OC%12OC(C)C(O)C(OS(=O)(=O)O)C%12OS(=O)(=O)O)C(OS(=O)(=O)O)C%11OS(=O)(=O)O)C%10OS(=O)(=O)O)C(OS(=O)(=O)O)C9OS(=O)(=O)O)C8OS(=O)(=O)O)C(OS(=O)(=O)O)C7OS(=O)(=O)O)C6OS(=O)(=O)O)C(OS(=O)(=O)O)C5OS(=O)(=O)O)C4OS(=O)(=O)O)C(OS(=O)(=O)O)C3OS(=O)(=O)O)C2OS(=O)(=O)O)C(OS(=O)(=O)O)C1OS(=O)(=O)O (stereo not drawn) | – | human plasma | 64 µg/mL | – | activated partial thromboplastin time | 94.1 s and 93.4 s and 96.7 s |
| COc1ccc(NC(=O)c2ccc3[nH]c(-c4ccc(N(C)C)cc4)nc3c2)cn1 | – | CT26, BALB/c mice, subcutaneous syngeneic graft | dose not given, day 2 | – | tumour volume | 56.3 mm3 and 82.3 mm3 and 70.1 mm3 and 71.7 mm3 and 97.1 mm3 |
| COC1CN([C@H]2CC[C@H]([C@@]3(C)Oc4c(Cl)cc(C(=O)NCc5c(SC)cc(C)[nH]c5=O)c(C)c4O3)CC2)C1 | RNA-seq, measured: SGCB | human, whole blood | dose not given, 24 h | relative to: pretreatment baseline | log2 fold change | 1.09 |
| COC1OC(C)C(OC2OC(C)C(O)C(OC3OC(C)C(OC4OC(C)C(O)C(OC5OC(C)C(OC6OC(C)C(O)C(OC7OC(C)C(OC8OC(C)C(O)C(OC9OC(C)C(O)C(OS(=O)(=O)O)C9OS(=O)(=O)O)C8OS(=O)(=O)O)C(OS(=O)(=O)O)C7OS(=O)(=O)O)C6OS(=O)(=O)O)C(OS(=O)(=O)O)C5OS(=O)(=O)O)C4OS(=O)(=O)O)C(OS(=O)(=O)O)C3OS(=O)(=O)O)C2OS(=O)(=O)O)C(OS(=O)(=O)O)C1OS(=O)(=O)O (stereo not drawn) | – | human plasma | 64 µg/mL | – | activated partial thromboplastin time | 103 s and 99.4 s and 102 s |
| Nc1ncc(-c2ccc([C@H]3[C@@H](F)[C@@H](F)C[C@@H](F)[C@H]3F)cc2)cn1 | liver microsome stability | human liver microsomes | 1 µM, without NADPH | – | hepatic clearance | 3.9 mL/min/kg |
| CN1CCC[C@]1(C)/C=C/S(=O)(=O)NC(=O)Nc1c2c(cc3c1CCC3)CCC2 | – | human, whole blood ex vivo | 50 mg twice daily, day 14, 6 h, multiple ascending dose, with: LPS and ATP | – | IL-1β inhibition | 99% |
| COCC1CN(C2CCN(c3cc(OC)c(Nc4ncc(Br)c(Nc5ccc6c(c5P(C)(C)=O)OCCO6)n4)cc3C)CC2)C1 | RECIST 1.1 | advanced EGFR-mutant NSCLC patients | 60 mg once daily | – | not evaluable patients | 0% |
| COc1cc(O)ccc1CCC(c1ccc(O)cc1)c1cc2c(c(C)c1O)OC(c1ccc(O)cc1)CC2 (mixture of isomers) | – | human blood | 30 µM, with: A23187 | – | TXB2 level | 894 ± 330 pg/mL |
| CC(=O)[O-].O.O.[O-]c1ccc(Br)cc1C=NCCN1CCOCC1.[Zn+2] | DPPH radical scavenging | – | 40 µM | – | inhibition | 10.3% |
| Nc1nc2cc(CC[C@H]3C[C@@H](n4ccc5c(N)ncnc54)[C@H](O)[C@@H]3O)ccc2cc1Br | – | NCI-H441 xenograft, mouse | 1.0 mg/kg/day, day 38 | – | %ΔTGI | 44.8% |
| COC1OC(C)C(OC2OC(C)C(O)C(OC3OC(C)C(OC4OC(C)C(O)C(OC5OC(C)C(OC6OC(C)C(O)C(OC7OC(C)C(OC8OC(C)C(O)C(OC9OC(C)C(OC%10OC(C)C(O)C(OC%11OC(C)C(O)C(OS(=O)(=O)O)C%11OS(=O)(=O)O)C%10OS(=O)(=O)O)C(OS(=O)(=O)O)C9OS(=O)(=O)O)C8OS(=O)(=O)O)C(OS(=O)(=O)O)C7OS(=O)(=O)O)C6OS(=O)(=O)O)C(OS(=O)(=O)O)C5OS(=O)(=O)O)C4OS(=O)(=O)O)C(OS(=O)(=O)O)C3OS(=O)(=O)O)C2OS(=O)(=O)O)C(OS(=O)(=O)O)C1OS(=O)(=O)O (stereo not drawn) | – | human plasma | 32 µg/mL | – | activated partial thromboplastin time | 65.7 s and 65.3 s |
| O=C(NCc1cccc(Cl)c1)c1ccc([C@H]2[C@@H](F)[C@@H](F)C[C@@H](F)[C@H]2F)cc1 | liver microsome stability | mouse liver microsomes | 1 µM | – | hepatic clearance | 44 mL/min/kg |

Repeated from above:
| SMILES | assay | test system | setting | how to read | endpoint | result |
| --- | --- | --- | --- | --- | --- | --- |
| O=C(NCc1cccc(Cl)c1)c1ccc([C@H]2[C@@H](F)[C@@H](F)C[C@@H](F)[C@H]2F)cc1 | liver microsome stability | mouse liver microsomes | 1 µM | – | hepatic clearance | 44 mL/min/kg |
